Published values of several laboratories.
Protocols differ between the studies behind these lines.
Host: host not given
Notes: tumour-bearing

SMILES	model	medium	time	tracer uptake [%ID/g]
N#C[C@@H]1CC(F)(F)CN1C(=O)CNC(=O)c1ccnc2c(NC(=O)[C@H](CCCCNC(=O)CCOCCOCCOCCOCCOCCOCCNC(=O)CN3CCN(CC(=O)[O-])CCN(CC(=O)[O-])CCN(CC(=O)[O-])CC3)NC(=O)CCCc3ccc(I)cc3)cccc12.[177Lu+3]	U-87 MG tumour model	tumour	1 h	42.5
COc1cccc(OC)c1-c1cc(C(=O)NC2(C(=O)O)C3CC4CC(C3)CC2C4)nn1-c1ccc(C(=O)N(C)CCOCCN(C)C(=O)[C@H](CCCCNC(=O)[C@H](CC(C)C)NC(=O)C2OC2C(=O)O)NC(=O)CN2CCN(CC(=O)[O-])CCN(CC(=O)[O-])CCN(CC(=O)[O-])CC2)cc1C(C)C.[177Lu+3] (mixture of isomers)	HT-29 tumour model	bone	72 h	1
N#C[C@@H]1CCCN1C(=O)CNC(=O)c1ccnc2ccc(OCCCN3CCN(C(=O)CCc4ccc5c(c4)CN4CCN6CC(=O)[O][68Ga-]([O]C(=O)C4)([O]5)[O]c4ccc(CCC(=O)N5CCN(CCCOc7ccc8nccc(C(=O)NCC(=O)N9CCC[C@H]9C#N)c8c7)CC5)cc4C6)CC3)cc12	U-87 MG tumour model	bone	1 h	4.12
N#C[C@@H]1CC(F)(F)CN1C(=O)CNC(=O)c1ccnc2c(NC(=O)CCOCCOCCOCCOCCOCCOCCNC(=O)[C@H](CCCCNC(=O)CN3CCN(CC(=O)[O-])CCN(CC(=O)[O-])CCN(CC(=O)[O-])CC3)NC(=O)CCCc3ccc(I)cc3)cccc12.[177Lu+3]	U-87 MG tumour model	bone	48 h	0.32
CC[C@H](C)[C@H](NC(=O)C[C@H](NC(=O)CN1CCN2CCN(CC1)CC(=O)[O][Al]([18F])[O]C(=O)C2)C(=O)O)C(=O)N[C@H]1CCc2cccc3c2N(C1=O)[C@H](C(=O)NCc1cn[nH]n1)C3	MC-38 tumour model	heart	30 min	0.62
COc1cccc(OC)c1-c1cc(C(=O)NC2(C(=O)O)C3CC4CC(C3)CC2C4)nn1-c1ccc(C(=O)N(C)CCCN(C)CCCN(C)C(=O)[C@H](CCCCNC(=O)[C@H](CC(C)C)NC(=O)C2OC2C(=O)O)NC(=O)CN2CCN(CC(=O)[O-])CCN(CC(=O)[O-])CCN(CC(=O)[O-])CC2)cc1C(C)C.[177Lu+3] (mixture of isomers)	HT-29 tumour model	bone	4 h	1.1
N#C[C@@H]1CCCN1C(=O)CNC(=O)c1ccnc2ccc(OCCCN3CCN(C(=O)CCc4ccc5c(c4)CN4CCN(Cc6cc(CCC(=O)O)ccc6O)CC(=O)[O][Al-]([18F])([O]C(=O)C4)[O]5)CC3)cc12 (stereo partly drawn)	U-87 MG tumour model	intestine	2 h	11.7
CC(C)Cc1ccc(C(C)C(=O)N[C@@H](CCCCNC(=O)CCOCCOCCOCCOCCOCCOCCNC(=O)CN2CCN(CC(=O)[O-])CCN(CC(=O)[O-])CCN(CC(=O)[O-])CC2)C(=O)Nc2cccc3c(C(=O)NCC(=O)N4CC(F)(F)C[C@H]4C#N)ccnc23)cc1.[177Lu+3] (stereo partly drawn)	U-87 MG tumour model	tumour	4 h	19.4
COc1cccc(OC)c1-c1cc(C(=O)NC2(C(=O)O)C3CC4CC(C3)CC2C4)nn1-c1ccc(C(=O)N(C)CCCN(C)C(=O)[C@H](CCCCNC(=O)[C@H](CC(C)C)NC(=O)C2OC2C(=O)O)NC(=O)CN2CCN(CC(=O)[O-])CCN(CC(=O)[O-])CCN(CC(=O)[O-])CC2)cc1C(C)C.[177Lu+3] (mixture of isomers)	HT-29 tumour model	stomach	7 days	0.039
